# Measured values pooled from the literature.
# Lines come from different studies, so protocols differ. Numbers after ± are the reported error.
Compound,test,test system,conditions,EC50
O=C(O)CCCc1ccc2ccc3cccc4ccc1c2c34,"carboxyfluorescein transport, carrier",egg PC vesicles,"pH 7.5, 25 °C, added: 1 µM Trp-Arg7",103000 nM
O=[N+]([O-])c1cc2ccccc2c2ccccc12,developmental toxicity,zebrafish (Danio rerio) embryos,6 to 120 hpf,1810 nM
Clc1ccc(Nc2nnc(Cc3ccncc3)c3ccccc23)cc1,"subintestinal vessel angiogenesis, inhibitor",Danio rerio embryo,"96 hpf, 50% vessel length reduction",100 nM
CN(C)CCCNC(=O)[C@@H](N)CSSC[C@H](N)C(=O)NCCCN(C)C,L-cystine solubility,,"72 h, 20 °C",114 nM
COc1cc2c(Nc3ccc(Br)cc3F)ncnc2cc1OCC1CCN(C)CC1,"subintestinal vessel angiogenesis, inhibitor",Danio rerio embryo,"96 hpf, 50% vessel length reduction",10000 nM
O=c1c(O)c(-c2ccc(O)c(O)c2)oc2cc(O)cc(O)c12,"hydroxyl radical scavenging, in vitro",,50% scavenging,1200 ± 110 nM
CCCCCCC(=O)N(CCCC/C=C\CCCCCCC(=O)O)C(C)C,vasorelaxation,bovine coronary artery rings,added: U46619,1700 nM
c1ccc2nc3ccccc3cc2c1,developmental toxicity,zebrafish (Danio rerio) embryos,6 to 120 hpf,13500 nM
O=c1c(O[C@@H]2OC[C@@H](O)[C@H](O)[C@H]2O)c(-c2ccc(O)c(O)c2)oc2cc(O)cc(O)c12,"hydroxyl radical scavenging, in vitro",,50% scavenging,460 ± 40 nM
COc1cc(-c2cn(-c3ccc(C(C)(C)C)cc3)nn2)[nH]c1/C=N/C12CC3CC(CC(C3)C1)C2,"Cl-/HCO3- exchange, chloride ion-selective electrode",POPC vesicles 0.5 mM,"300 s, pH 7.2, added: NaHCO3 40 mM",39 ± 2 nM
[H]/N=C(/N)c1ccc(NCc2nc3cc(C(=O)N(CCC(=O)O)c4ccccn4)ccc3n2C)cc1,"platelet activation, inhibitor, refers to: ATP release",rat platelet-rich plasma,"20% plasma, added: thrombin",33 nM
CC(C)C[C@H](NC(=O)[C@H]1O[C@@H]1C(=O)O)C(=O)NCCCCN=C(N)N,LTP rescue,mouse hippocampal slices,"20 min, added: oligomerized Aβ42",650 nM
CC(C)(C)OC(=O)N1CCC(OCc2nc(-c3ccncc3)no2)CC1,"short-circuit current reduction, agonist, Ussing chamber",mouse descending colon mucosa,"apical addition, added: VIP 10 nM",4800 nM
COc1c(-c2ccc(O)c(O)c2)oc2cc(O)cc(OC)c2c1=O,"hydroxyl radical scavenging, in vitro",,50% scavenging,180 nM
COc1cc(-c2cn(-c3ccc(C(C)(C)C)cc3)nn2)[nH]c1/C=N/CCO,"chloride/lactate exchange, ISE chloride efflux",POPC vesicles 0.5 mM,"300 s, pH 7.2, added: sodium lactate 40 mM",7660 ± 547 nM
Nc1ccc2ccc3cccc4ccc1c2c34,developmental toxicity,zebrafish (Danio rerio) embryos,6 to 120 hpf,1850 nM
Cc1c(Cl)cccc1NC(=O)c1cc(-c2ccc(F)c(O)c2)on1,"membrane potential, rhodamine uptake",isolated mouse liver mitochondria,,> 100000 nM
CCCCNC(=O)C(=O)NCCCC/C=C\CCCCCCC(=O)O,vasorelaxation,bovine coronary artery rings,added: U46619,1700 nM
CC[C@H](C)[C@@H]1NC(=O)[C@H](CCCNC(=N)N)NC(=O)[C@H](CC(=O)O)NC(=O)[C@H](CC(C)C)NC(=O)[C@H](CCCCN)NC(=O)[C@H](CC(C)C)NC(=O)CNC(=O)[C@H](Cc2ccccc2)NC(=O)[C@@H](NC(=O)CNC(=O)[C@H](CCCCN)NC(=O)[C@H](CO)NC(=O)[C@H](CC(C)C)NC(=O)CNC(=O)[C@H](CCCCN)NC(=O)[C@H](CCCCN)NC(=O)[C@H](CC(N)=O)NC(=O)[C@H](C)NC(=O)CNC(=O)[C@H](CCCCN)NC(=O)[C@H](Cc2ccc(O)cc2)NC(=O)[C@H](CCCCN)NC(=O)[C@H](CCCNC(=N)N)NC(=O)[C@H](C)NC(=O)[C@H](CC(N)=O)NC(=O)[C@@H]2CCCN2C(=O)[C@H](Cc2c[nH]cn2)NC(=O)[C@H](CCC(=O)O)NC(=O)[C@H](CCC(N)=O)NC(=O)CNC(=O)[C@@H]2CCCN2)CSSC[C@@H](C(=O)O)NC(=O)CNC(=O)[C@H](CC(C)C)NC(=O)CNC(=O)[C@H](CO)NC(=O)[C@H](CCSC)NC(=O)[C@H](CO)NC(=O)CNC1=O,"annualized growth velocity change, Emax model on Cmax",achondroplasia patients,baseline to day 183,1.5 ng/mL
O=C(O)c1cc(O)c(O)c(O)c1,"hydroxyl radical scavenging, in vitro",,50% scavenging,410 ± 50 nM
O=C(NC[C@H]1CN(c2ccc(N3CCOCC3=O)cc2)C(=O)O1)c1ccc(Cl)s1,"platelet activation, inhibitor, flow cytometry, refers to: CD62P",human whole blood,added: tissue factor,31 nM
C=CC(=O)N1CCC(Oc2cc3c(Nc4ccc(Cl)c(Cl)c4F)ncnc3cc2OC)CC1,"cell proliferation, inhibitor","Ba/F3 expressing EGFR V769_D770insASV, Mus musculus",,5.1 ± 0.2 nM
O=c1c(O[C@@H]2O[C@@H](CO)[C@H](O)[C@H]2O)c(-c2ccc(O)c(O)c2)oc2cc(O)cc(O)c12,"hydroxyl radical scavenging, in vitro",,50% scavenging,460 ± 50 nM
COc1ccc(-c2cc(C(=O)Nc3cc(Cl)cnc3C)no2)cc1O,"membrane potential, rhodamine uptake",isolated mouse liver mitochondria,,> 100000 nM
Cc1ccc(Nc2nccc(N(C)c3ccc4c(C)n(C)nc4c3)n2)cc1S(N)(=O)=O,"subintestinal vessel angiogenesis, inhibitor",Danio rerio embryo,"96 hpf, 50% vessel length reduction",500 nM
O=c1c(O[C@@H]2O[C@H](CO)[C@H](O)[C@H](O)[C@H]2O)c(-c2ccc(O)c(O)c2)oc2cc(O)cc(O)c12,"hydroxyl radical scavenging, in vitro",,50% scavenging,170 nM
CC1CNc2c(cccc2S(=O)(=O)N[C@@H](CCCNC(=N)N)C(=O)N2CC[C@@H](C)C[C@@H]2C(=O)O)C1 (stereo partly shown),"platelet activation, inhibitor, flow cytometry, refers to: CD62P",mouse whole blood,"20% whole blood, added: thrombin",47 nM
O=Cc1c(O)cc(O)cc1O[C@@H]1O[C@H](CO)[C@@H](O)[C@H](O)[C@H]1O,"hydroxyl radical scavenging, in vitro",,50% scavenging,1300 ± 120 nM
COc1cc(-c2cn(-c3ccc(C(C)(C)C)cc3)nn2)[nH]c1/C=N/C1CCCC1,"Cl-/HCO3- exchange, chloride ion-selective electrode",POPC vesicles 0.5 mM,"300 s, pH 7.2, added: NaHCO3 40 mM",138 ± 17 nM
CC(=O)c1c(O)cc(O)cc1O[C@@H]1O[C@H](CO)[C@@H](O)[C@H](O)[C@H]1O,"hydroxyl radical scavenging, in vitro",,50% scavenging,1400 ± 160 nM
Cc1ccc(Cl)cc1NC(=O)c1cc(-c2ccc(F)c(O)c2)on1,"membrane potential, rhodamine uptake",isolated mouse liver mitochondria,,> 100000 nM

# For quick reference, copied from above:
Compound,test,test system,conditions,EC50
C=CC(=O)N1CCC(Oc2cc3c(Nc4ccc(Cl)c(Cl)c4F)ncnc3cc2OC)CC1,"cell proliferation, inhibitor","Ba/F3 expressing EGFR V769_D770insASV, Mus musculus",,5.1 ± 0.2 nM
O=c1c(O[C@@H]2O[C@@H](CO)[C@H](O)[C@H]2O)c(-c2ccc(O)c(O)c2)oc2cc(O)cc(O)c12,"hydroxyl radical scavenging, in vitro",,50% scavenging,460 ± 50 nM
COc1ccc(-c2cc(C(=O)Nc3cc(Cl)cnc3C)no2)cc1O,"membrane potential, rhodamine uptake",isolated mouse liver mitochondria,,> 100000 nM
Cc1ccc(Nc2nccc(N(C)c3ccc4c(C)n(C)nc4c3)n2)cc1S(N)(=O)=O,"subintestinal vessel angiogenesis, inhibitor",Danio rerio embryo,"96 hpf, 50% vessel length reduction",500 nM
